Published values pooled from the literature.
± gives the spread as reported.

Compound | test | system | conditions | scale | quantity | value
CCOc1c([C@H](C)n2nc(C)c3c(N)ncnc32)cc(Cl)c(F)c1[C@@H]1CNC(=O)C1 | Olink proximity extension proteomics, measured: IL12A | human FL or MZL patients, plasma | dose not given, week 8 | relative to: baseline | plasma protein level change | -48%
C[C@@H](O)CCOC(=O)C[C@@H](C)O | measured: C2 acylcarnitine | human, plasma | 60 min, log2-transformed values |  | metabolite level | 3.38 ± 0.54 µmol/L
c1ccc(-c2n[nH]cc2-c2ccnc3ccccc23)nc1 | kinase binding, competitor, MIB/MS competition, measured: NPR1 | Candida albicans cell lysate | 1 µM | relative to: DMSO | log2 fold change | 1.5
NCC(=O)Nc1cncc(-c2nn3c(=O)cc(N4CCNCC4)nc3s2)c1 | ADP-induced platelet aggregation, light transmission aggregometry | human stable CAD patients on aspirin, platelets ex vivo | 0.04 mg/kg, 120 min post dose, with: 20 µM ADP | relative to: placebo difference | inhibition of platelet aggregation | 1.32%
CN[C@@H]1COc2c(S(=O)(=O)NC(=O)Nc3c4c(cc5c3CCC5)CCC4)cnn2C1 | measured: IL-1β | human participants, whole blood ex vivo | 150 mg single dose, 336 h, with: LPS/ATP | relative to: baseline | inhibition | 7.9%
Cc1n[nH]c2ccc(-c3cc(OC[C@@H](N)Cc4ccccc4)cnc3-c3ccoc3)cc12 | kinase binding, competitor, MIB/MS competition, measured: RIM8 | Candida albicans cell lysate | 10 µM | relative to: DMSO | log2 fold change | -2.22
CN(CCOc1ccc(CC2SC(=O)NC2=O)cc1)c1ccccn1 (racemic) | indirect calorimetry | mice, diet-induced obese | dose not given, end of treatment |  | VO2 | 85.4 ± 7.19 mL/min/kg
CN(C)C(=O)Oc1cccc([N+](C)(C)C)c1 | neuromuscular block reversal | rat | dose not given, 11 (unit not given), with: cisatracurium | relative to: T1 twitch | train-of-four ratio | 85
COc1ccccc1[C@H](Cn1c(=O)n(C(C)(C)C(=O)O)c(=O)c2c(C)c(-c3ncco3)sc21)OC1CCOCC1 |  | human | 200 mg, post-treatment |  | blood LDL level | 122 ± 23.5 mg/dL
Cn1cc(Nc2nccc(-c3ccc4c(c3)CN(C3COC3)CC[C@H]4NC(=O)c3cn(C(C)(C)C)nn3)n2)cn1 | measured: Isoleucine Degradation I | splenic B cells, Mus musculus | 30 mg/kg, with: IgD activation | relative to: vehicle, direction not given | pathway activation z-score | 0
NC(=O)c1cnc2[nH]ccc2c1N[C@@H]1[C@@H]2CC3C[C@H]1C[C@@](O)(C3)C2 | flow cytometry | Japanese healthy men, blood | oral, 10 mg twice daily, 72 h after day 7 dose | relative to: baseline | CD4+ memory T-cell change | 0.02%
CC[C@@H]1[C@H](F)C(=O)N[C@@H]1COc1nccc2cc(C(N)=O)c(OC)cc12 | ATP-site probe binding, ActivX profiling, measured: SRPK1, SRPK2 | THP-1 cell lysate | 0.04 mM, Lys1 site |  | inhibition | -23%
OC(CCN1CCCCC1)(c1ccccc1)C1CC2C=CC1C2 (centres unmarked) | resting-state EEG | healthy elderly humans | oral, 4 mg, eyes open, LS mean |  | beta power, EEG, Fz Cz | 5.7 µV²
O=C(OC(C(F)(F)F)C(F)(F)F)N1CCN(Cc2cccc(Oc3ccccc3)c2)CC1 | PET blocking study | rhesus monkey, brain HIP | 0.01 mg/kg, compound pretreatment, with: [18F]T-401 tracer |  | k3 | 0.102 min⁻¹
N#Cc1cccc(OC(=O)N2CCC(C(c3ccccc3)c3ccccc3)CC2)c1 | rebound tonometry | normotensive mice, eye | topical, dose not given, single application |  | intraocular pressure decrease | ~4.5 mmHg
COc1cc(Nc2ncc3c(n2)-c2ccc(Cl)cc2C(c2c(F)cccc2OC)=NC3)ccc1C(=O)O |  | mouse, NB-1643 neuroblastoma xenograft | 10.4 mg/kg | direction not given | median response score | 10
COc1ccc(-c2cncc(N[C@@H](C)c3cccc(NC(=O)c4cncc(C)c4)c3)n2)cc1OC | measured: rno-miR-22-3p | rat SU5416/hypoxia model, lung | dose not given | relative to: SU5416/hypoxia vehicle | fold change | 1.56
N#Cc1ccc2c(-c3ccncc3)c(-c3ccc(F)cc3)nn2c1 | kinase binding, competitor, MIB/MS competition, measured: IKS1 | Candida albicans cell lysate | 100 nM | relative to: DMSO | log2 fold change | -0.379
C=CCn1c(=O)c2cnc(Nc3ccc(N4CCN(C)CC4)cc3)nc2n1-c1ccc2c(n1)[C@@](O)(CC)CC2 |  | ZR-75-1 xenograft, BALB/c nude mice | oral, 80 mg/kg, day 28, once daily days 0-21 and 25-27 |  | tumour volume difference | 392 ± 19.8 mm3
O=C1Nc2cc3[nH]nc(-c4ccncc4)c3cc2CN1Cc1ccccc1 | RECIST v1.1 | human, relapsed or refractory advanced solid tumours | intravenous, 4.8 mg/kg, pooled schedules |  | partial response, best response | 0%
C[C@@H](NC(=O)N1C(=O)[C@H](Cc2ccnc(N)c2)[C@H]1C(=O)O)C1CCCCC1 |  | human | iv infusion, 0.6 mg/kg/h, 24 h |  | PT AUEC | 1670 h·s

Compound | test | system | conditions | scale | quantity | value
CC(c1cc2ccccc2s1)N(O)C(N)=O (centres unmarked) |  | human blood | 3 µM, with: A23187 |  | EPA level | 72100 ± 19000 pg/mL
C[C@H]1C[C@H]2CSC(N)=N[C@@]2(c2nc(NC(=O)c3ccc(OC(F)F)cn3)cs2)CO1 | measured: Aβx-40 | healthy adults, plasma | 15 mg once daily, day 2 | relative to: placebo | percent change from baseline | -43.9%
COc1nnc2ccc(N3CCC(c4ccc(OCCN5CCN(C)C(=O)[C@H]5C)cc4)CC3)nn12 |  | human patients | 5 mg once daily, above baseline variability |  | time above HEXIM1 threshold | 1.54 h
C[C@H](Oc1ccc(Br)cc1-c1ccon1)C(=O)O | muscle velocity recovery cycles | human, tibialis anterior muscle | 400 mg once daily, multiple doses, 30 Hz train for 30 s | relative to: placebo | peak amplitude change | -1.7%
COC[C@@H](c1ccc(C(F)(F)F)cc1)N1CCN(C2(C)CCN(C(=O)c3c(C)ncnc3C)CC2)C[C@@H]1C |  | HIV-1 infected patients, plasma | 5 mg, week 48, with optimized background regimen | relative to: baseline | change in HIV-1 RNA | -2 log10 copies/mL
N#Cc1ccn2c(-c3ccncc3)c(-c3ccc(F)cc3)nc2c1 | kinase binding, competitor, MIB/MS competition, measured: CMK1 | Candida albicans cell lysate | 1 µM | relative to: DMSO | log2 fold change | 0.118
CCN(CC)CCNC(=O)c1cc(S(C)(=O)=O)ccc1OC | catalepsy, bar test | female CD-1 mice | intraperitoneal, 200 mg/kg, 90 min, maximum 1 min |  | time on bar | 28.9 s
COc1cc2cc(-c3ccc(CC(=O)Nc4cc(C(C)(C)C(F)(F)F)no4)cn3)cnc2cc1OC | RECIST v1.1 | human RET-altered solid tumours | 75 mg, phase I pooled |  | best overall response PR | 25%
CCO[C@H]1CCN(Cc2c(OC)cc(C)c3[nH]ccc23)[C@H](c2ccc(C(=O)O)cc2)C1 | measured: PNH-type erythrocytes | PNH patients, blood | 25 mg/100 mg, week 8, mean |  | PNH red cell clone size | 79.6%
N#CCC1CCN(c2nc(Nc3ccc(N4CCC(O)CC4)cc3)c3c(=O)[nH]ncc3n2)CC1 | Olink multiplex, measured: CDCP1 | human, serum | 40 mg, day 29 | relative to: baseline | fold change from baseline | -1.27
C[C@@H]1CCC[C@H](n2cnc(-c3cc(Cl)ccc3-n3cc(Cl)nn3)cc2=O)c2cc(ccn2)-c2c(cnn2C(F)F)NC1=O |  | cynomolgus monkey plasma | IC2.5× aPTT, Actin FS reagent |  | concentration for aPTT prolongation | 2400 nM
O=c1cc(-c2ccc(O)cc2)oc2c([C@@H]3OC[C@H](O)[C@H](O)[C@H]3O)c(O)c([C@@H]3O[C@H](CO)[C@@H](O)[C@H](O)[C@H]3O)c(O)c12 |  | HFpEF mice | oral, 20 and 40 mg/kg/day |  | mitral E peak velocity | decreased
CC1(C)CCC(CN2CCN(c3ccc(C(=O)NS(=O)(=O)c4ccc(NCC5CCOCC5)c([N+](=O)[O-])c4)c(Oc4cnc5[nH]ccc5c4)c3)CC2)=C(c2ccc(Cl)cc2)C1 | cell killing | canine lymph node CD3+ T cells, dog 34 | 24 h |  | EC50 | 1170 nM
CC(C)NCC(O)c1ccc(O)c(O)c1 (centres unmarked) |  | ventricular cardiomyocytes, C57BL/6 mouse | dose not given, 0.076 s |  | sarcomere length | 1.72 µm
Cc1cc(Nc2ccc(S(F)(F)(F)(F)F)cc2)n2nc(C(C)(F)F)nc2n1 | measured: dihydroorotate | female CD-1 mice, pooled urine | oral, 300 mg/kg daily, 8-24 h after dose 3 |  | DHO concentration | 5.4 ± 0.229 µM
CC(=O)NCC(=O)NCC(=O)N[C@H](C(=O)N[C@@H](Cc1ccc(O)cc1)C(=O)N[C@@H](CO)C(=O)N[C@H]1CSSC[C@@H](C(=O)N[C@@H](CCCNC(=N)N)C(=O)N2CCC[C@H]2C(=O)N[C@@H](CCC(N)=O)C(=O)N[C@@H](CCCNC(=N)N)C(=O)NCC(=O)NCCC(=O)N[C@@H](CCCCNC(=O)CN(CC(=O)NCCCC[C@H](NC(=O)CCNC(=O)CNC(=O)[C@H](CCCNC(=N)N)NC(=O)[C@H](CCC(N)=O)NC(=O)[C@@H]2CCCN2C(=O)[C@H](CCCNC(=N)N)NC(=O)[C@@H]2CSSC[C@H](NC(=O)[C@H](CO)NC(=O)[C@H](Cc3ccc(O)cc3)NC(=O)[C@@H](NC(=O)CNC(=O)CNC(C)=O)[C@@H](C)O)C(=O)N[C@@H](Cc3c[nH]cn3)C(=O)N[C@@H](Cc3ccccc3)C(=O)NCC(=O)N[C@@H](C)C(=O)N[C@@H](CC(C)C)C(=O)N[C@@H]([C@@H](C)O)C(=O)N[C@@H](Cc3c[nH]c4ccccc34)C(=O)N[C@@H](C(C)C)C(=O)N2)C(N)=O)C(=O)CCN)C(N)=O)NC(=O)[C@H](C(C)C)NC(=O)[C@H](Cc2c[nH]c3ccccc23)NC(=O)[C@H]([C@@H](C)O)NC(=O)[C@H](CC(C)C)NC(=O)[C@H](C)NC(=O)CNC(=O)[C@H](Cc2ccccc2)NC(=O)[C@H](Cc2c[nH]cn2)NC1=O)[C@@H](C)O |  | healthy BALB/c mice | subcutaneous, 0.16 mg/kg, 14 d, single dose |  | haematocrit | 46.9%
C[N+](C)(C)CCOC(N)=O | field potential oscillations | mouse, hippocampal slice CA1 stratum pyramidale | 20 µM | relative to: baseline | beta-band power | 28 fold
CN(C)C(=N)N=C(N)N |  | gestational diabetes women | dose not given, treated arm |  | newborn weight | 2.9 ± 0.5 kg
O=C(O)CNC(=O)Cc1ccccc1 |  | ventricular cardiomyocytes, C57BL/6 mouse | dose not given, 0.028 s |  | sarcomere length | 1.72 µm
CN(C)C(=O)c1cc2cnc(Nc3ccc(N4CCNCC4)cn3)nc2n1C1CCCC1 | RNA-seq GSEA, measured: HALLMARK_HEDGEHOG_SIGNALING | MB002 tumour | concentration not given, in vivo | relative to: vehicle, direction not given | normalized enrichment score | -1.64

For quick reference, copied from above:
Compound | test | system | conditions | scale | quantity | value
CN[C@@H]1COc2c(S(=O)(=O)NC(=O)Nc3c4c(cc5c3CCC5)CCC4)cnn2C1 | measured: IL-1β | human participants, whole blood ex vivo | 150 mg single dose, 336 h, with: LPS/ATP | relative to: baseline | inhibition | 7.9%
CCO[C@H]1CCN(Cc2c(OC)cc(C)c3[nH]ccc23)[C@H](c2ccc(C(=O)O)cc2)C1 | measured: PNH-type erythrocytes | PNH patients, blood | 25 mg/100 mg, week 8, mean |  | PNH red cell clone size | 79.6%
C[C@@H](NC(=O)N1C(=O)[C@H](Cc2ccnc(N)c2)[C@H]1C(=O)O)C1CCCCC1 |  | human | iv infusion, 0.6 mg/kg/h, 24 h |  | PT AUEC | 1670 h·s
C[C@H]1C[C@H]2CSC(N)=N[C@@]2(c2nc(NC(=O)c3ccc(OC(F)F)cn3)cs2)CO1 | measured: Aβx-40 | healthy adults, plasma | 15 mg once daily, day 2 | relative to: placebo | percent change from baseline | -43.9%
